Measurements of several laboratories.
Numbered parts are unrelated; each lists some results of a single study.
UniProt Q15569, sequence (whole entry, looked up): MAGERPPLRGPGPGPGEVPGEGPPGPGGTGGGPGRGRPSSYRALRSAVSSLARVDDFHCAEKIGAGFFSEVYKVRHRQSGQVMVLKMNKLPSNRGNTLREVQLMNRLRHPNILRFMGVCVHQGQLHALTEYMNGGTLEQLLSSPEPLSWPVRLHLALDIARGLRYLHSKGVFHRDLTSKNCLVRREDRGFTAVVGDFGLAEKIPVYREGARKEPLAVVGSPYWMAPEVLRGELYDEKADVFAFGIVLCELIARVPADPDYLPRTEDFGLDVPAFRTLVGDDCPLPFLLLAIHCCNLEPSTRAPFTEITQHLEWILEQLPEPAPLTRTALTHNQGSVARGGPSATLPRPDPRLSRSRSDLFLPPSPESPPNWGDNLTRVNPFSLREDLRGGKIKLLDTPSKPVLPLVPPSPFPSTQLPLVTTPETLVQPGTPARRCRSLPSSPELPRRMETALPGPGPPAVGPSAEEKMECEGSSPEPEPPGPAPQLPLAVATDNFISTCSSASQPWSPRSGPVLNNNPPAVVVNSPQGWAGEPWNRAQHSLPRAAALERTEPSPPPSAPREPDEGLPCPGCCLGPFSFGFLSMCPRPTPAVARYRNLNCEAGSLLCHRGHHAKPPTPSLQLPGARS
UniProt P06239, sequence (whole entry, looked up): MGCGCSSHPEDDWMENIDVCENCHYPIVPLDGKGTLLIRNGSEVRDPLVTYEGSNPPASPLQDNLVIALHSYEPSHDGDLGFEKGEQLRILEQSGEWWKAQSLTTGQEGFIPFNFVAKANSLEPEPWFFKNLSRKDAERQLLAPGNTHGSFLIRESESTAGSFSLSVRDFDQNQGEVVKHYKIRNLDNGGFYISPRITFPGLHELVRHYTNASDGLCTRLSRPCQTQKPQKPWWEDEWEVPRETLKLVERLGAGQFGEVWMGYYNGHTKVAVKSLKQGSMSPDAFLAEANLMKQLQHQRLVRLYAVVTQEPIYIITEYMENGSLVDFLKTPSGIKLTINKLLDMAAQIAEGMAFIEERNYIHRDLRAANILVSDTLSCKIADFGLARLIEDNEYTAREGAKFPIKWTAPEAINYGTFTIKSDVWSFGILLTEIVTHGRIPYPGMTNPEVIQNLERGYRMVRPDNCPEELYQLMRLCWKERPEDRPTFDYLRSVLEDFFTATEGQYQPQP
UniProt Q9UEE5, sequence (whole entry, looked up): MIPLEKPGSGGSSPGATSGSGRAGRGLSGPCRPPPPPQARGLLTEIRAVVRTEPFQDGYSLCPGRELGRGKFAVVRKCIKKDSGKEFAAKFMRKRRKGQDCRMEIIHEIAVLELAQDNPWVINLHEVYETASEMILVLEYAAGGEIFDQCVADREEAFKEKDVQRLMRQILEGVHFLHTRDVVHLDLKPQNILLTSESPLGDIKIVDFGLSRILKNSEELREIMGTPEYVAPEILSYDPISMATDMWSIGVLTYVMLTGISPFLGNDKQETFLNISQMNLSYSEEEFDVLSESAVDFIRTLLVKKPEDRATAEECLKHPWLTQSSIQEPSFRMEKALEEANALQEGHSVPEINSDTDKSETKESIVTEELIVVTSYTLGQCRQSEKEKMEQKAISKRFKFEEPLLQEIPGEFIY
UniProt Q8NI60, sequence (whole entry, looked up): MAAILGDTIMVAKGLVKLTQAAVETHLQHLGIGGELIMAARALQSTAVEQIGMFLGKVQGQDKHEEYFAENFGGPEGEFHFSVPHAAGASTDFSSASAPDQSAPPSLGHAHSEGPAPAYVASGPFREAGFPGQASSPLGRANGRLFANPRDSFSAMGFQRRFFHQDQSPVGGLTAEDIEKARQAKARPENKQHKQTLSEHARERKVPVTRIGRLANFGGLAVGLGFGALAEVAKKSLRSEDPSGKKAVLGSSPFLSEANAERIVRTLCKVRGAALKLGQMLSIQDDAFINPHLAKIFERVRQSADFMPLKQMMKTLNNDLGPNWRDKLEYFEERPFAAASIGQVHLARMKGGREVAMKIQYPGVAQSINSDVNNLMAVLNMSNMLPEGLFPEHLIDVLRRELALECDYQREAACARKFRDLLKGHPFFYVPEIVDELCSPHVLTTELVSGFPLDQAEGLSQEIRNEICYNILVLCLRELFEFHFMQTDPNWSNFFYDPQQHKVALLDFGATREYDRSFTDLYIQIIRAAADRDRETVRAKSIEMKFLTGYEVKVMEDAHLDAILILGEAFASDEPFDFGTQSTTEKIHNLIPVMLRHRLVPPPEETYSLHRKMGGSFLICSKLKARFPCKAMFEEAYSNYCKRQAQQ
UniProt Q06187, sequence (whole entry, looked up): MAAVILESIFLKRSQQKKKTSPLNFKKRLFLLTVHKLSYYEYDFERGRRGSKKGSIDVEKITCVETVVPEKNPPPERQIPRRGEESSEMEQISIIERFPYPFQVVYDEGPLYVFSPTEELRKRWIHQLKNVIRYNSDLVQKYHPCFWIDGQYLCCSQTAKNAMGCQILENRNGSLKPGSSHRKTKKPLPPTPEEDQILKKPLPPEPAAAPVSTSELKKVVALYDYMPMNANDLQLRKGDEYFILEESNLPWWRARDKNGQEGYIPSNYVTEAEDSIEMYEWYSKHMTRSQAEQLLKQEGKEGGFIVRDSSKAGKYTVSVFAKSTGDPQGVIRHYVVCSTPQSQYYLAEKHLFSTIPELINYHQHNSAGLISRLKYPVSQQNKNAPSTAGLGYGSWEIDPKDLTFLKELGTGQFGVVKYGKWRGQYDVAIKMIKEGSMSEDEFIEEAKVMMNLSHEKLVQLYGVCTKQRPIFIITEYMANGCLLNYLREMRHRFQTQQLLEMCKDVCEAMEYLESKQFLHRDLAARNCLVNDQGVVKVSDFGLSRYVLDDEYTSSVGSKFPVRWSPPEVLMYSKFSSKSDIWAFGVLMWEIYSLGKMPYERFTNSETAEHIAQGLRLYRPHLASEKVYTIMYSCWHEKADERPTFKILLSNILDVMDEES
UniProt P42336, sequence (whole entry, unmodified, looked up): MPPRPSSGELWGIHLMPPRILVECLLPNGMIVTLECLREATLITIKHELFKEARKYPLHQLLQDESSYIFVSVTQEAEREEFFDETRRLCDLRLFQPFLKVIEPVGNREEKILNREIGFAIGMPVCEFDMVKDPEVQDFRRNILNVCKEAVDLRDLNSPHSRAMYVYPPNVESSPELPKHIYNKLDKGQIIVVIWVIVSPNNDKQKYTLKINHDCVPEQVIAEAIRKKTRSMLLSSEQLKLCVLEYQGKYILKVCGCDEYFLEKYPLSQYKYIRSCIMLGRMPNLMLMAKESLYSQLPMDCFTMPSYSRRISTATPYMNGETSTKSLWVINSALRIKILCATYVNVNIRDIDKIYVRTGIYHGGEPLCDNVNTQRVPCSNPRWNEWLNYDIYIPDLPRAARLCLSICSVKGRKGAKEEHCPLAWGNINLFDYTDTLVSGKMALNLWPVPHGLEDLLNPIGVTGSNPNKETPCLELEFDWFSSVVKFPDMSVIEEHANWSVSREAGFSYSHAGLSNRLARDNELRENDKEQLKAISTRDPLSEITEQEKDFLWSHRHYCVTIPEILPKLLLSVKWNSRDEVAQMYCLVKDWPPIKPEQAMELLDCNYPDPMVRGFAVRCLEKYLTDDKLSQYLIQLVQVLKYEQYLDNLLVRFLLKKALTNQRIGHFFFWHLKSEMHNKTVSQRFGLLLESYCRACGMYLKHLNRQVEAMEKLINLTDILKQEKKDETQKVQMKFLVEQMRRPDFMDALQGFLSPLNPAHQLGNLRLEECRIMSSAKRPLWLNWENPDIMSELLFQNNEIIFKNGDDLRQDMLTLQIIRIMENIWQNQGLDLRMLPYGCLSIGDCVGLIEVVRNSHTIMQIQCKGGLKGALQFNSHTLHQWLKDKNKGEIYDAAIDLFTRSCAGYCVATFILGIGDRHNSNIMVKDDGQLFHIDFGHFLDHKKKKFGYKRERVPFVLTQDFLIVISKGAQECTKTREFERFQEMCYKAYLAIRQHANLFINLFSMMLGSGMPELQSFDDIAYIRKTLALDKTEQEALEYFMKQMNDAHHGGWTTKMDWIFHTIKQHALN
UniProt Q9H093, sequence (whole entry, looked up): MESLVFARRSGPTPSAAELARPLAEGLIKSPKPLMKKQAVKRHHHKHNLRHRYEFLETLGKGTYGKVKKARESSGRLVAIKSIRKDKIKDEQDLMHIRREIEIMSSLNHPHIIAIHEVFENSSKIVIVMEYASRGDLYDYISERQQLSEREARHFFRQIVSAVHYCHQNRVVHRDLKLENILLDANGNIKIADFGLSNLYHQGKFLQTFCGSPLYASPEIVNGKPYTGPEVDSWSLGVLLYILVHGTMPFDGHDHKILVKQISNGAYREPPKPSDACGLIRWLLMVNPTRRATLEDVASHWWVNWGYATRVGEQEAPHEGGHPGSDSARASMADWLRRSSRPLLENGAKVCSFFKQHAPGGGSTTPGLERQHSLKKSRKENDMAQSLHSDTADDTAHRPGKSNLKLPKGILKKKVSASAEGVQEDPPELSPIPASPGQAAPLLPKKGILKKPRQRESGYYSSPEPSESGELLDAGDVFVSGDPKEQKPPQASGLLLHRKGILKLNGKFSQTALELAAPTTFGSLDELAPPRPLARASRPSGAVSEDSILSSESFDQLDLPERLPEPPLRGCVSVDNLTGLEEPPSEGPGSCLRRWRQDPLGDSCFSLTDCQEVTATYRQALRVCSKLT

Block 1
Target: Bromodomain-containing protein 4, BD1 (BRD4, Homo sapiens, UniProt O60885)
Observed: acetyl-histone H4 peptide binding
Technique: AlphaScreen displacement
Tested at: 50 µM
Compound	inhibition [%]
COc1ccc(Nc2ncc3c(n2)CCN(C(=O)OC(C)(C)C)C3)cc1	29.1
Cc1[nH]nc(-c2ccc(O)c(C)c2O)c1Oc1ccc(Br)cc1	34.1
CC[C@H](CO)Nc1nc(NCc2ccccc2)c2ncn(C(C)C)c2n1	4.85
Cn1cccc1C=C(C#N)c1nc2ccccc2s1	63.2
COc1ccc(Nc2nccc(-c3cccc(N)c3)n2)cc1	30.9
CCc1ccc(-c2csc3nc[nH]c(=O)c23)cc1	11.8
COc1cc(C=C2SC(=O)NC2=O)c(Br)cc1O	56.2
CCOc1ccccc1C(=O)Nc1ccc2[nH]ncc2c1	2.25
O=c1[nH]cnc2sc(-c3ccccc3)cc12	6.15
CCOc1cc(C=C(C#N)C(N)=O)cc(CSc2ccccc2)c1O	24.3
O=[N+]([O-])c1cnc(Nc2cccc(Cl)c2)nc1Nc1cccc(Cl)c1	40.8

Block 2
Target: Beta-1 adrenergic receptor (ADRB1, Homo sapiens, UniProt P08588)
UniProt P08588, sequence (whole entry, looked up): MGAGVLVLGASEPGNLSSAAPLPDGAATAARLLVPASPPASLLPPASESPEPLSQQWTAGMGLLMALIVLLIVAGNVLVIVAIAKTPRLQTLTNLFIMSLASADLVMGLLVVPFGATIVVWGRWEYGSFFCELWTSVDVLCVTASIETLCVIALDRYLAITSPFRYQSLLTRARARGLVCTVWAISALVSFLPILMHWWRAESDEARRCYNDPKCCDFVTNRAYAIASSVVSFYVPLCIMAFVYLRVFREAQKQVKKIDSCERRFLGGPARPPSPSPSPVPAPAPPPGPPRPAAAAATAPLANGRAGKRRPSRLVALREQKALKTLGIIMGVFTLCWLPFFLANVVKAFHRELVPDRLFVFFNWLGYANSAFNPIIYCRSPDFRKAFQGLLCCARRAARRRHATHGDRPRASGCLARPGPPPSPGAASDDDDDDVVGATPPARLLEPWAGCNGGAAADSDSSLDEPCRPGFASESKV
Mode: agonist
Structure (SMILES)	EC50
c1cc(N[C@@H]2CCNC2)nc(-c2cnc3ccc(-c4cn[nH]c4)cn23)c1	≥ 100 µM
COc1ccc(CN[C@H]2[C@H](O)[C@@H](N3CCN(c4ccccc4OC)CC3)[C@@H]3OC[C@H]2O3)cc1	25.1 µM
Cc1ccc(OCC(O)CNc2nc(C)nc3c2c(C)nn3C)c(C)c1 (stereo not shown)	≥ 100 µM
c1cc(-c2cc(-c3ccncc3)c3cncn3c2)cc(N2CCOCC2)c1	≥ 100 µM
COc1ccccc1N1CCN(C(=O)c2ccc(C)s2)CC1	≥ 100 µM
COc1cc2oc(=O)ccc2c(OC)c1C[C@@H](O)C(C)(C)O	≥ 100 µM
COc1ccccc1N1CCN([S+](=O)([O-])c2ccc(OC(F)(F)F)cc2)CC1	≥ 100 µM
Cc1noc2c(NCCc3ccccn3)cc(-c3cccnc3)nc12	≥ 100 µM
O=C1c2cnc(-c3ccsc3)nc2OCCN1c1cccc(C(F)(F)F)c1	≥ 100 µM
CC[C@H](NC(C)C)[C@H](O)c1ccc(O)c2[nH]c(=O)ccc12 (racemic)	0.0235 µM
O=Cc1cc2ccccc2nc1N1CCOCC1	≥ 100 µM
Cc1noc2c(-c3cccnc3N(C)C)cc(-c3ccccc3)nc12	≥ 100 µM
CN(C)c1cccc(-c2cc(N3CCOCC3=O)c3cncn3c2)c1	≥ 100 µM
O=c1cc(-c2ccccn2)oc2c(Nc3cccnc3)nccc12	≥ 100 µM

Block 3
Structure (SMILES): Cc1ccc(NC(=O)c2ccnc(C(F)(F)F)c2)cc1-c1cc(OCCO)nc(N2CCOCC2)c1
Tested at: 1 µM
target	technique	measured	setting	baseline	remaining binding
TTK (Homo sapiens, UniProt P33981)	competitive binding panel			vehicle	100%
CLK1 (Homo sapiens, UniProt P49759)	competitive binding panel			vehicle	92%
MAST1 (Homo sapiens, UniProt Q9Y2H9)	competitive binding panel			vehicle	79%
TESK1 (Homo sapiens, UniProt Q15569)	competitive binding panel			vehicle	100%
MAPK15 (Homo sapiens, UniProt Q8TD08)	competitive binding panel	ERK8		vehicle	86%
BTK (Homo sapiens, UniProt Q06187)	competitive binding panel			vehicle	87%
NUAK2 (Homo sapiens, UniProt Q9H093)	competitive binding		SNARK		100%
AXL (Homo sapiens, UniProt P30530)	competitive binding panel			vehicle	90%
CAMKK2 (Homo sapiens, UniProt Q96RR4)	competitive binding panel			vehicle	98%
PAK5 (Homo sapiens, UniProt Q9P286)	competitive binding panel	PAK7		vehicle	97%
STK10 (Homo sapiens, UniProt O94804)	competitive binding		LOK		21%

Block 4
SMILES: CN1CCN(c2cnc3c(C4CCN(C(=O)c5ccc(OC(F)(F)F)cc5N)CC4)ncnc3c2)CC1
Tested at: 1 µM
target	observed	technique	remaining binding [%]
LCK (Homo sapiens, UniProt P06239)	binding	competition with immobilised ligand	100
Tyrosine-protein kinase ABL1, non-phosphorylated (ABL1, Homo sapiens, UniProt P00519, F317I)	binding	competition with immobilised ligand	100
EPHA4 (Homo sapiens, UniProt P54764)	cell-free assay	competition with immobilised ligand	100
TESK1 (Homo sapiens, UniProt Q15569)	cell-free assay	competition with immobilised ligand	96
NEK2 (Homo sapiens, UniProt P51955)	cell-free assay	competition with immobilised ligand	100
CDK18 (Homo sapiens, UniProt Q07002)	cell-free assay	competition with immobilised ligand	100
CDC42BPG (Homo sapiens, UniProt Q6DT37)		competition binding	100
LRRK2 (Homo sapiens, UniProt Q5S007)	cell-free assay	competition with immobilised ligand	100
Tyrosine-protein kinase ABL1, phosphorylated (ABL1, Homo sapiens, UniProt P00519, H396P)	cell-free assay	competition with immobilised ligand	100
MUSK (Homo sapiens, UniProt O15146)	cell-free assay	competition with immobilised ligand	100
STK32A (Homo sapiens, UniProt Q8WU08)	binding	competition with immobilised ligand	94
PRKCQ (Homo sapiens, UniProt Q04759)	cell-free assay	competition with immobilised ligand	91
PIK3CA (Homo sapiens, UniProt P42336, I800L)	cell-free assay	competition with immobilised ligand	100
CAMK1D (Homo sapiens, UniProt Q8IU85)	cell-free assay	competition with immobilised ligand	100
STK17A (Homo sapiens, UniProt Q9UEE5)	cell-free assay	competition with immobilised ligand	92
CSNK1G3 (Homo sapiens, UniProt Q9Y6M4)	cell-free assay	competition with immobilised ligand	100
RIOK1 (Homo sapiens, UniProt Q9BRS2)	cell-free assay	competition with immobilised ligand	100
FGR (Homo sapiens, UniProt P09769)	cell-free assay	competition with immobilised ligand	100
WNK1 (Homo sapiens, UniProt Q9H4A3)	cell-free assay	competition with immobilised ligand	100
ALK (Homo sapiens, UniProt Q9UM73, L1196M)	cell-free assay	competition with immobilised ligand	100
STK32B (Homo sapiens, UniProt Q9NY57)	cell-free assay	competition with immobilised ligand	87
HIPK4 (Homo sapiens, UniProt Q8NE63)	cell-free assay	competition with immobilised ligand	100
KIT (Homo sapiens, UniProt P10721, V559D)	cell-free assay	competition with immobilised ligand	99
COQ8A (Homo sapiens, UniProt Q8NI60)	cell-free assay	competition with immobilised ligand	100
BRSK2 (Homo sapiens, UniProt Q8IWQ3)	cell-free assay	competition with immobilised ligand	100

Some of these lines once more (block 2):
Structure (SMILES)	EC50
COc1cc2oc(=O)ccc2c(OC)c1C[C@@H](O)C(C)(C)O	≥ 100 µM
COc1ccccc1N1CCN([S+](=O)([O-])c2ccc(OC(F)(F)F)cc2)CC1	≥ 100 µM
Cc1noc2c(NCCc3ccccn3)cc(-c3cccnc3)nc12	≥ 100 µM
O=C1c2cnc(-c3ccsc3)nc2OCCN1c1cccc(C(F)(F)F)c1	≥ 100 µM
CC[C@H](NC(C)C)[C@H](O)c1ccc(O)c2[nH]c(=O)ccc12 (racemic)	0.0235 µM
O=Cc1cc2ccccc2nc1N1CCOCC1	≥ 100 µM
Cc1noc2c(-c3cccnc3N(C)C)cc(-c3ccccc3)nc12	≥ 100 µM
